Experimental data collected from several papers.
Parts stem from different laboratories: compare values within a part only. Positions count from the first letter of the parent shown.

Sample 1 — method: protein binding microarray; molecule type: double-stranded DNA, one strand shown; matrix: in vitro; concentration: not given; relative to: not given; direction: higher = stronger binding
Target: Histone acetyltransferase KAT6A, winged helix 1, GST fusion (KAT6A, Homo sapiens, UniProt Q92794, residues 1-85)
Setting: 8-mer, flanks averaged, mean of 2 arrays, mostly near background
Construct (chain): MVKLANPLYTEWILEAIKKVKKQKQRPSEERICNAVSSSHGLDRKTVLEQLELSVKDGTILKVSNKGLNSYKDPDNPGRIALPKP
With `CACATGAC` the E-score was -0.134.
`GACCTATC` has an E-score of -0.0219.
The E-score of `TTCAGCAA` is reported as -0.246.
`GCAGGCCA` gave an E-score of -0.0214.
With `ACCTGGCC` the E-score was -0.106.
For `CAGGACCA`, the E-score was 0.00477.
For `CAGTCGTC`, the E-score was -0.122.
The E-score of `AGAACCAT` is reported as -0.116.
`AGGGCCCG` gave an E-score of 0.233.

Sample 2 — method: RNA Bind-n-Seq; molecule type: RNA; matrix: in vitro; concentration: 200 nM; setting: whole 134-nt RNA, ends assumed; added: 150 mM KCl; relative to: input library; direction: higher = stronger binding
Target: Fragile X messenger ribonucleoprotein 1, C-terminal low-complexity region (Fmr1, Mus musculus, UniProt P35922)
With `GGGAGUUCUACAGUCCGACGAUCGCAGGAAGUAAAAACAAAUGGAAAUGCUUCGGAUAGUGGCCGGGGUGGGGGUUGCUAAGGAAAGGGUGGGAUGGGAGUGGGUAAAGAGUUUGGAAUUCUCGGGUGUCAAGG` the log2 enrichment was 0.175.
`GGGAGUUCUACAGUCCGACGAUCCCUCAAGUCCUGUGCUACACAUCGUAUGUACCGAAUCGGAGGAAAGGAAAGGAAAGUAUUAUGUUACGCCGUUCGGAUCUGCACUUCCAGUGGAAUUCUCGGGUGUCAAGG` has a log2 enrichment of 0.108.
With `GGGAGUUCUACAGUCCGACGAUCUCCUGUGCUACACAUCGUAUGUACCGAAUCGGAAAAAAGGAAAAAAGGGAAAAAAGGGGAAAGUAUUAUGUUACGCCGUUCGGAUCUGCAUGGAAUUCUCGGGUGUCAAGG` the log2 enrichment was -0.583.
For `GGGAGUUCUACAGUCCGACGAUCAAGUCCUGUGCUACACAUCGUAUGUACCGAAUCGGAGGAAAAAAAGGAAAAAAAGGAAAGUAUUAUGUUACGCCGUUCGGAUCUGCACUUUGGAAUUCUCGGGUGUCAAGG`, the log2 enrichment was -0.879.
`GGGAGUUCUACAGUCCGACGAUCUCCUGUGCUACACAUCGUAUGUACCGAAUCGGAAAAAAGGGGAAAAAAGGAAAAAAGGGAAAGUAUUAUGUUACGCCGUUCGGAUCUGCAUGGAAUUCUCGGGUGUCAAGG` gave a log2 enrichment of -0.423.
`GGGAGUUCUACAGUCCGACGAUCACCAUGCAGGUGGGCAUCUUAGGGAAGUGGGGCAAGGGGGGGAUAGGGAGGGGGGUAACACUUUGGGAACAGGUGGUCCCAGGUCGUUUCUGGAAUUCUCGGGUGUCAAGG` gave a log2 enrichment of 1.09.
The log2 enrichment of `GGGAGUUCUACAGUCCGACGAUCGCAGGAAGUAAAAACAAAUGGAAAUGCUUCGGAUAGUGGCAGGGGUGGCGGUUGCUAAGGAAAGGGUGGGAUGGGAGUGGGUAAAGAGUUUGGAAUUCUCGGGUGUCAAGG` is reported as 0.487.
`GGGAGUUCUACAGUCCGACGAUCCUGUGCUACACAUCGUAUGUACCGAAUCGGGCCCCCCCGGGCCCCCCCGGCCCCCCCGGGGAAAGUAUUAUGUUACGCCGUUCGGAUCUGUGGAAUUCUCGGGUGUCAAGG` gave a log2 enrichment of -1.04.

Sample 3 — target: CCNB3, cyclin fold, Cln2 fusion (human); method: yeast growth competition, sequencing; matrix: yeast; setting: weak parent motif; relative to: not given; direction: higher = stronger binding
Parent: CDC25A docking peptide (human); PPHRRRLLFACSP
`PPHRRRLLFADSP [C11D]`: “normalised enrichment score” -0.136.
`PPERRRLLFACSP [H3E]` — result for “normalised enrichment score”: -0.0761.
`PPHRRRLLFACKP [S12K]` — result for “normalised enrichment score”: -0.00652.
`MPHRRRLLFACSP [P1M]` — result for “normalised enrichment score”: 0.257.
Under “normalised enrichment score”, `PPHERRLLFACSP [R4E]` is recorded as 0.134.
`PPHRTRLLFACSP [R5T]`: “normalised enrichment score” 0.0449.
For `PPHRRRLLNACSP [F9N]`, “normalised enrichment score” read 0.289.
For `PPHRRRELFACSP [L7E]`, “normalised enrichment score” read 0.0584.
Under “normalised enrichment score”, `PPHRRRLLFACWP [S12W]` is recorded as 0.415.

Sample 4 — method: protein-binding microarray; molecule type: double-stranded DNA, one strand shown; matrix: in vitro; concentration: 2540 nM top; setting: 60-bp whole probe; added: salmon DNA 0.4 mg/ml; relative to: random background probes; direction: higher = stronger binding; constant ends, left off below: GCCTAGCAC … GTCTTGATTCGCTTGACGCTGCTG
Target: Interferon regulatory factor 3, full length, phosphomimetic (IRF3, Homo sapiens, UniProt Q14653, residues 1-427, S386D/S396D/S398D/S402D/T404D/S405D)
Target sequence (chain): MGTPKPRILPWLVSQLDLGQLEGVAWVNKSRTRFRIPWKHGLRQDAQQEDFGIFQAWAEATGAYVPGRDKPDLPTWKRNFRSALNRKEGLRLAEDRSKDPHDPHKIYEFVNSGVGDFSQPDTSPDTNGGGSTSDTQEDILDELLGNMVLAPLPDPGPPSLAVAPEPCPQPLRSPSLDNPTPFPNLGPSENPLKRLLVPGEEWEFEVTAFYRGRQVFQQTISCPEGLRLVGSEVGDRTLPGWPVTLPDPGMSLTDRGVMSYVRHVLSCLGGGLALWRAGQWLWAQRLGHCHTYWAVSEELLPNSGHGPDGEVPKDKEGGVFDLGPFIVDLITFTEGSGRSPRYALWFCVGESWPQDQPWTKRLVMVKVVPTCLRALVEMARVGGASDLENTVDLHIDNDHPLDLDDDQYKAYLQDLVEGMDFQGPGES
`GACGGACTGGGATTGGGGACGTGCTAG` — result for “fitted relative affinity”: -0.6 z-score.
`ATAGGTCTCCTTCTCCTTTAGTGCTAG`: “fitted relative affinity” 4.07 z-score.
For `TTTCCCTAGAAGACGAAAGAGTGCTAG`, “fitted relative affinity” read 3.8 z-score.
Under “fitted relative affinity”, `GAGGGTCTCGGTTTCGGGACGTGCTAG` is recorded as 3.07 z-score.
Under “fitted relative affinity”, `CATATATTCACTATAGTGTGGTGCTAG` is recorded as 1.67 z-score.
For `GACGGTTTCGACTATCGGCACGTGCTA`, “fitted relative affinity” read 2.8 z-score.
`TTAGATCTCAGTTTCTATTAGTGCTAG`: “fitted relative affinity” 2.11 z-score.
For `TTAGCACTGGGGTTTCGGTTAGTGCTA`, “fitted relative affinity” read 2.37 z-score.
`GAGGGTTTCGGGTATCGGGACGTGCTA`: “fitted relative affinity” 2.95 z-score.
`GACGATTTCTGTTTCGAGACGTGCTAG` — result for “fitted relative affinity”: 4.29 z-score.
`TTAGATCTCGGTTTCGGTTAGTGCTAG`: “fitted relative affinity” 4.77 z-score.
For `GAGGGTTTCGGGACTGGGGACGTGCTA`, “fitted relative affinity” read 2.74 z-score.
For `TTAGGACTGGACACTTGGTTAGTGCTA`, “fitted relative affinity” read -0.711 z-score.
For `TTAGGTTTCGACAATGGGTTAGTGCTA`, “fitted relative affinity” read 1.81 z-score.
`GACGGTCTCGGACCGGGGACGTGCTAG`: “fitted relative affinity” -0.0731 z-score.
`AACGGACTGGACTATCGGGACGTGCTA` — result for “fitted relative affinity”: -0.322 z-score.

Sample 5 — method: DHFR PCA, deep sequencing; matrix: yeast; added: (+)-ABA 0.032 µM; relative to: wild-type fitted maximum; direction: higher = stronger binding
Target: ABI1, truncated, D143A, DHFR fusion (Arabidopsis thaliana)
Setting: methotrexate growth selection, single substitutions
Parent: PYL1, truncated, DHFR fusion (Arabidopsis thaliana); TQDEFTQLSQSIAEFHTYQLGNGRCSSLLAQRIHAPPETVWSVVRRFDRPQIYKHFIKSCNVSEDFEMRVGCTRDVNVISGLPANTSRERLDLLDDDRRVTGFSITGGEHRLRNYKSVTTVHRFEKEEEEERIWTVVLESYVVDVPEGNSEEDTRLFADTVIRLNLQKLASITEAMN
For `L94Q`, “relative binding score” read -1.71%.
`T39I`: “relative binding score” 39.7%.
For `F47H`, “relative binding score” read -4.1%.
`D92F`: “relative binding score” -0.668%.
For `V118R`, “relative binding score” read 37.1%.
For `T120F`, “relative binding score” read -1.58%.
Under “relative binding score”, `V43T` is recorded as 3.74%.
`A158I`: “relative binding score” 41.4%.
Under “relative binding score”, `R132P` is recorded as 45.8%.
For `S104K`, “relative binding score” read -3.43%.
For `R111Q`, “relative binding score” read 5.61%.
`C25L`: “relative binding score” 3.99%.
`Y53E` — result for “relative binding score”: 1.58%.
For `A84Q`, “relative binding score” read 14.6%.
`R45F`: “relative binding score” -5.41%.
`V145Y`: “relative binding score” -12.3%.
Under “relative binding score”, `L29P` is recorded as 7.62%.

Sample 6 — method: universal PBM; molecule type: double-stranded DNA, one strand shown; matrix: in vitro; concentration: not given; direction: higher = stronger binding
Target: Sal-like protein 4, full length isoform B (SALL4, Homo sapiens, UniProt Q9UJQ4-2, residues 1-616)
Setting: 8-mer, flanks averaged, mean of replicates
`ATCCCATA` has an E-score of 0.215.
`AAATGCTA` has an E-score of 0.243.
The E-score of `CTCTTGAC` is reported as -0.162.
For `ACGTGGTC`, the E-score was -0.226.
`ATCAAACA` has an E-score of 0.193.
The E-score of `GGAGCCTA` is reported as -0.208.
`AGGTTTCG` gave an E-score of -0.177.
`GTAACTCA` gave an E-score of -0.0695.
The E-score of `CATGGAAC` is reported as -0.0676.
`CACTGGAG` gave an E-score of -0.226.
The E-score of `ACTGATAA` is reported as 0.3.
For `AGTAGCTA`, the E-score was 0.0583.
For `ATGCCAGC`, the E-score was -0.194.
For `CCACAGAC`, the E-score was -0.12.
The E-score of `TGAGCCCA` is reported as -0.212.
For `GAGAATAA`, the E-score was 0.202.

Sample 7 — method: aptamer microarray, sandwich; molecule type: DNA with 2'F-ANA; matrix: in vitro; concentration: 200 nM; added: Cy3 exosite-II aptamer, 400 nM; direction: higher = stronger binding; sequence: GGTTGGTGTGGTTGG
Target: Prothrombin, mature alpha-thrombin (F2, Homo sapiens, UniProt P00734)
Setting: whole 15-mer aptamer, many near background
`2'F-ANA at 1 4 5 8 11 14 15`: “mean fluorescence intensity” 46.1 a.u.
Under “mean fluorescence intensity”, `2'F-ANA at 2 3 4 6 8 9 10 11 15` is recorded as 178 a.u.
Under “mean fluorescence intensity”, `2'F-ANA at 1 2 3 4 8 9 10 12 14` is recorded as 53.8 a.u.
`2'F-ANA at 2 3 6 10 12 13 14 15` — result for “mean fluorescence intensity”: 251 a.u.
For `2'F-ANA at 1 2 3 5 6 7 8 10 14`, “mean fluorescence intensity” read 49.1 a.u.
`2'F-ANA at 1 2 3 7 8 9 10 11 12 13 14 15` — result for “mean fluorescence intensity”: 67.1 a.u.
`2'F-ANA at 2 3 4 5 6 7 8 9 10 13 14 15`: “mean fluorescence intensity” 53.9 a.u.
Under “mean fluorescence intensity”, `2'F-ANA at 1 2 5 6 7 8 9 10 14 15` is recorded as 93.6 a.u.
`2'F-ANA at 1 4 6 7 9 10 11 12 14 15`: “mean fluorescence intensity” 49.2 a.u.
`2'F-ANA at 5 8 9 11 12 14`: “mean fluorescence intensity” 52.8 a.u.
`2'F-ANA at 2 4 5 6 7 8 12 14 15` — result for “mean fluorescence intensity”: 47.7 a.u.
Under “mean fluorescence intensity”, `2'F-ANA at 1 4 5 6 9 10 12 14 15` is recorded as 54.8 a.u.
`2'F-ANA at 1 2 6 7 9 11 13 14` — result for “mean fluorescence intensity”: 52.6 a.u.

A few entries again (sample 4):
`ATAGGTCTCCTTCTCCTTTAGTGCTAG`: “fitted relative affinity” 4.07 z-score.
For `TTTCCCTAGAAGACGAAAGAGTGCTAG`, “fitted relative affinity” read 3.8 z-score.
Under “fitted relative affinity”, `GAGGGTCTCGGTTTCGGGACGTGCTAG` is recorded as 3.07 z-score.
Under “fitted relative affinity”, `CATATATTCACTATAGTGTGGTGCTAG` is recorded as 1.67 z-score.
For `GACGGTTTCGACTATCGGCACGTGCTA`, “fitted relative affinity” read 2.8 z-score.
`TTAGATCTCAGTTTCTATTAGTGCTAG`: “fitted relative affinity” 2.11 z-score.
For `TTAGCACTGGGGTTTCGGTTAGTGCTA`, “fitted relative affinity” read 2.37 z-score.
`GAGGGTTTCGGGTATCGGGACGTGCTA`: “fitted relative affinity” 2.95 z-score.
`GACGATTTCTGTTTCGAGACGTGCTAG` — result for “fitted relative affinity”: 4.29 z-score.
`TTAGATCTCGGTTTCGGTTAGTGCTAG`: “fitted relative affinity” 4.77 z-score.
For `GAGGGTTTCGGGACTGGGGACGTGCTA`, “fitted relative affinity” read 2.74 z-score.
For `TTAGGACTGGACACTTGGTTAGTGCTA`, “fitted relative affinity” read -0.711 z-score.
For `TTAGGTTTCGACAATGGGTTAGTGCTA`, “fitted relative affinity” read 1.81 z-score.
`GACGGTCTCGGACCGGGGACGTGCTAG`: “fitted relative affinity” -0.0731 z-score.
`AACGGACTGGACTATCGGGACGTGCTA` — result for “fitted relative affinity”: -0.322 z-score.
